Assay results collected from several papers.
Parts stem from different laboratories: compare values within a part only. Positions count from the first letter of the parent shown.
UniProt P10721, sequence (whole entry, unmodified, looked up): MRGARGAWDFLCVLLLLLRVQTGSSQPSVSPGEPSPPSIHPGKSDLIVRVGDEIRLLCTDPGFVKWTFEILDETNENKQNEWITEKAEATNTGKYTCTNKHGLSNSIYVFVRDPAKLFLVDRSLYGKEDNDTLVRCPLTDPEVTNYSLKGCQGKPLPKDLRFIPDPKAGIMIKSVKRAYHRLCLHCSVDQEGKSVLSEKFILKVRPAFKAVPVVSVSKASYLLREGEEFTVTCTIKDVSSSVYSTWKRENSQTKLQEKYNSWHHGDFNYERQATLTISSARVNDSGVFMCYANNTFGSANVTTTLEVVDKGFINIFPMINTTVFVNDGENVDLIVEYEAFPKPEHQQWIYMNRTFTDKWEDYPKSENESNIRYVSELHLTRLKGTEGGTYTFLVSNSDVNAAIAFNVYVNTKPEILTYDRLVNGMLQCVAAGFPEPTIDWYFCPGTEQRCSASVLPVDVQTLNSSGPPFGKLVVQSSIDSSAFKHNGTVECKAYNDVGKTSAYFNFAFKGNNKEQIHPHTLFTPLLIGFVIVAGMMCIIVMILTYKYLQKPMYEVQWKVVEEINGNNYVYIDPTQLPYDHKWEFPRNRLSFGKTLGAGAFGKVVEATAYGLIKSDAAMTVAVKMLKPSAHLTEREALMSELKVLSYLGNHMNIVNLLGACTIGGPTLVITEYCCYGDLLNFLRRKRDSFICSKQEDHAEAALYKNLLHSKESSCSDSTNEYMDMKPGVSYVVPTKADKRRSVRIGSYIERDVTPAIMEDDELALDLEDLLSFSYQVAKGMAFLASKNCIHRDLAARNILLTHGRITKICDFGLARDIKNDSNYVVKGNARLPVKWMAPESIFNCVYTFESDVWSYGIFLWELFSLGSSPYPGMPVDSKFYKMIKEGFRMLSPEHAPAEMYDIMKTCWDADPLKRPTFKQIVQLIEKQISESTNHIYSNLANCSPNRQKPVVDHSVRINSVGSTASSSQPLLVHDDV
UniProt Q8TDC3, sequence (whole entry, looked up): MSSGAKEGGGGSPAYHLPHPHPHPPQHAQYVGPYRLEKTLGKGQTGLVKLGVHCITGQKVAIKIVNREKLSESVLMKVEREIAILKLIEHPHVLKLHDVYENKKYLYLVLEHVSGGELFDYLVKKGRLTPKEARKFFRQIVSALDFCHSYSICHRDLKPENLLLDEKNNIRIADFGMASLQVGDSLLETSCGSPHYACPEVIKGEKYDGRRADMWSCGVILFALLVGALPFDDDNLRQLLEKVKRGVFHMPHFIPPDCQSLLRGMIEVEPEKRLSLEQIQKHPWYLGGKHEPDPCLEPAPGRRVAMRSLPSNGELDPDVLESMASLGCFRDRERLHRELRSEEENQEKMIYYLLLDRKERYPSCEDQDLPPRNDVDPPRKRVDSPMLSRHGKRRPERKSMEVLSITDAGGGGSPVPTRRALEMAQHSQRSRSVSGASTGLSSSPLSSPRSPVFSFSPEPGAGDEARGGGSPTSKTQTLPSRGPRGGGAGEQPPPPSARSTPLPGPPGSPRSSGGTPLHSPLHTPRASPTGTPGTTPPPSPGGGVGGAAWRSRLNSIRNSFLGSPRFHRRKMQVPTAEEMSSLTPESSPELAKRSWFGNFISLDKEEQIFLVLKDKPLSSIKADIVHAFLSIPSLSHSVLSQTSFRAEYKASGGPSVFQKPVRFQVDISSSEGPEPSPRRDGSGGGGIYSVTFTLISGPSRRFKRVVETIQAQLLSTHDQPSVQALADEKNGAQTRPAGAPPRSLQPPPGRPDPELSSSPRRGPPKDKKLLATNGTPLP
UniProt P49759, sequence (whole entry, looked up): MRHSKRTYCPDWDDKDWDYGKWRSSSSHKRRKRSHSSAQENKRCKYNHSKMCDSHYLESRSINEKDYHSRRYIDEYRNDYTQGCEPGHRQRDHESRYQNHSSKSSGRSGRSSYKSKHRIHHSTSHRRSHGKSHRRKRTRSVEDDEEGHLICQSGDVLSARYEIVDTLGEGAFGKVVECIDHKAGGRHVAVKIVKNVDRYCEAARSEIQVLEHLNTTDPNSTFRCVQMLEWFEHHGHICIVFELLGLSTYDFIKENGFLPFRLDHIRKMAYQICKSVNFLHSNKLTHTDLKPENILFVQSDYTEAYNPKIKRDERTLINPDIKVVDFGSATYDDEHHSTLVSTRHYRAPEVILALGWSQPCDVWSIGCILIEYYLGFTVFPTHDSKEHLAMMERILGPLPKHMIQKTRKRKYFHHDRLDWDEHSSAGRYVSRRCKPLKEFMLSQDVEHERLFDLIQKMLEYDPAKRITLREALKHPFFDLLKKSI
UniProt Q15746, sequence (whole entry, looked up): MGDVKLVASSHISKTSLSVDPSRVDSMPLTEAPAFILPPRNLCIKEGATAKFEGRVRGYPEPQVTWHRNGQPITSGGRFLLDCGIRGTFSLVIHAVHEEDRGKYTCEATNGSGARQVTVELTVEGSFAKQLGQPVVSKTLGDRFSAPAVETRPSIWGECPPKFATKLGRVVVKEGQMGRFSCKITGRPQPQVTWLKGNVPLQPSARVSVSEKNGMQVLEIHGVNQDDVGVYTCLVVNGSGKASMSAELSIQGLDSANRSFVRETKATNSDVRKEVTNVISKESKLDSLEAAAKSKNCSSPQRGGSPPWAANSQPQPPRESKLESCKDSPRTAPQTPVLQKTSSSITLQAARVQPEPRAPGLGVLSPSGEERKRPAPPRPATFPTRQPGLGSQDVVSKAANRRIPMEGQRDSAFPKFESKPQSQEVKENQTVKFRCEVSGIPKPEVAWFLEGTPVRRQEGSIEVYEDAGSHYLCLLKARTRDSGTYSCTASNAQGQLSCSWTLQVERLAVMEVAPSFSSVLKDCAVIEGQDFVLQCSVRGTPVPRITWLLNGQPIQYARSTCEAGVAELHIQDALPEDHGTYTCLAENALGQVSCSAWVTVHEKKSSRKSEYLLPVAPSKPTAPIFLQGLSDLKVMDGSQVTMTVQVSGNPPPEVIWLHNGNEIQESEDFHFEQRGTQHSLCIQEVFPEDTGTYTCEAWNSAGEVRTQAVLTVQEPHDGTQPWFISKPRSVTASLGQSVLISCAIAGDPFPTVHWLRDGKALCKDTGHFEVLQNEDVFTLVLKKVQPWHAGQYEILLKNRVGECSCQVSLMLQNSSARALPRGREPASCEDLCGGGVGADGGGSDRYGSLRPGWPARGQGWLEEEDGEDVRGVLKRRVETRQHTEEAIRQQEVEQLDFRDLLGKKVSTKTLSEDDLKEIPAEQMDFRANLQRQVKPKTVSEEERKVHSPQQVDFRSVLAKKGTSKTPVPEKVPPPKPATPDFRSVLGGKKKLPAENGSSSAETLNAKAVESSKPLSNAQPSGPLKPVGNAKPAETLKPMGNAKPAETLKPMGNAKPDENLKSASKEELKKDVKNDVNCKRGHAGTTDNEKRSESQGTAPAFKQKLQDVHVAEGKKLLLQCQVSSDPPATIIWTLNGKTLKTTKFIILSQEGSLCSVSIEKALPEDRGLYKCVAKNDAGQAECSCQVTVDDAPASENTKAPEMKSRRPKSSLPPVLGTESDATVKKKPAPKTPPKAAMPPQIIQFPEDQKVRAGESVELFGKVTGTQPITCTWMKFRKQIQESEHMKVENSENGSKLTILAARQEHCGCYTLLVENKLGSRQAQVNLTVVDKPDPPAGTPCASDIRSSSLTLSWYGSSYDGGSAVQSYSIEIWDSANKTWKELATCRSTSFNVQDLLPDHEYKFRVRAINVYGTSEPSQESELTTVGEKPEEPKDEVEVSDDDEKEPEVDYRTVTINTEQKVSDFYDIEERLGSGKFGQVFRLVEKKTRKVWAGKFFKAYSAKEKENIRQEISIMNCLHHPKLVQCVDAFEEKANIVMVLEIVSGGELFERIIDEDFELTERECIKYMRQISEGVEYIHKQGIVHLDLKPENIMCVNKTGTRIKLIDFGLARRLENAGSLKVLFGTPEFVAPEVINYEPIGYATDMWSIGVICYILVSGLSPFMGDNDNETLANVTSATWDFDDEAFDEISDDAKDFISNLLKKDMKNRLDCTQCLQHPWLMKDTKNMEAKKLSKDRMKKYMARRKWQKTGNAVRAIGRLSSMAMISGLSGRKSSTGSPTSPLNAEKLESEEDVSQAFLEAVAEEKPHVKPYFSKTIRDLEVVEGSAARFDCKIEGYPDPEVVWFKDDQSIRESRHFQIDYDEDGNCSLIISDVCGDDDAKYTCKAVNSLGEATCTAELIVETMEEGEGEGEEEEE
UniProt P21802, sequence (whole entry, looked up): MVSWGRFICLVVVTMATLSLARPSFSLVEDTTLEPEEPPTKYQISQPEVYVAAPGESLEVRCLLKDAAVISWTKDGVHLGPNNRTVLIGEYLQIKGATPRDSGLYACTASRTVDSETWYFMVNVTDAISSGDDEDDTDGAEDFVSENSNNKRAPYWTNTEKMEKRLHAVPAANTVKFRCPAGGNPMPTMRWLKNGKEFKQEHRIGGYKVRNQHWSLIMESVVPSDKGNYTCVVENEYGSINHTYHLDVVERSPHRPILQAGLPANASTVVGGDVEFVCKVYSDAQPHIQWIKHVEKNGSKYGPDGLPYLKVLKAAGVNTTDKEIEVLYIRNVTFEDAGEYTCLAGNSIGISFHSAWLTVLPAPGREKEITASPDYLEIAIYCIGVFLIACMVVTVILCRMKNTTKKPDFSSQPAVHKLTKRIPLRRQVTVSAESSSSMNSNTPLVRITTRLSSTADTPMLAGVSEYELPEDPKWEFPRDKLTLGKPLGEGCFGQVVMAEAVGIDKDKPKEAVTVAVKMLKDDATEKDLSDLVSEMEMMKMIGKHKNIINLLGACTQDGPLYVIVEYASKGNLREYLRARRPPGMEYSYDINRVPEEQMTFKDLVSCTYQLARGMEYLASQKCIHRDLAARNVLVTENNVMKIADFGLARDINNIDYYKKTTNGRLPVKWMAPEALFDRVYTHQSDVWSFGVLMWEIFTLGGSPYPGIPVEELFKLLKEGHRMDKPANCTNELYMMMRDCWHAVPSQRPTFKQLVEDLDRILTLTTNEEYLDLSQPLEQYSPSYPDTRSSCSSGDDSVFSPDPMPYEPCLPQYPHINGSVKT

Study 1
SMILES: O=C1NC(c2ccccn2)Sc2ccccc21 (stereo not shown)
Observed: cell-free assay
Method: competition with immobilised ligand
Concentration: 1 µM
target	remaining binding [%]
Serine/threonine-protein kinase BRSK1 (BRSK1, Homo sapiens, UniProt Q8TDC3)	76
Dual specificity mitogen-activated protein kinase kinase 2 (MAP2K2, Homo sapiens, UniProt P36507)	75
Fibroblast growth factor receptor 2 (FGFR2, Homo sapiens, UniProt P21802)	100
Cytoplasmic tyrosine-protein kinase BMX (BMX, Homo sapiens, UniProt P51813)	100
RAF proto-oncogene serine/threonine-protein kinase (RAF1, Homo sapiens, UniProt P04049)	100
Dual specificity protein kinase CLK1 (CLK1, Homo sapiens, UniProt P49759)	98
Tyrosine-protein kinase ABL1, non-phosphorylated (ABL1, Homo sapiens, UniProt P00519, H396P)	80
Receptor tyrosine-protein kinase erbB-3 (ERBB3, Homo sapiens, UniProt P21860)	88
Mast/stem cell growth factor receptor Kit (KIT, Homo sapiens, UniProt P10721, D816V)	100
SNF-related serine/threonine-protein kinase (SNRK, Homo sapiens, UniProt Q9NRH2)	94
Myosin light chain kinase, smooth muscle (MYLK, Homo sapiens, UniProt Q15746)	77
Serine/threonine-protein kinase Nek11 (NEK11, Homo sapiens, UniProt Q8NG66)	95
Serine/threonine-protein kinase PAK 2 (PAK2, Homo sapiens, UniProt Q13177)	100
Homeodomain-interacting protein kinase 1 (HIPK1, Homo sapiens, UniProt Q86Z02)	75
Serine/threonine-protein kinase NLK (NLK, Homo sapiens, UniProt Q9UBE8)	100
1-phosphatidylinositol 3-phosphate 5-kinase (PIKFYVE, Homo sapiens, UniProt Q9Y2I7)	100
Mast/stem cell growth factor receptor Kit (KIT, Homo sapiens, UniProt P10721)	89

Study 2
Cell line: mouse MPNST tumor cells
Method: high-content immunofluorescence imaging
Refers to: nuclear SOX9
Concentration: 10 µM
Time: 12 h
Notes: mean of 2 replicates
Baseline: DMSO control
Reading: higher = more nuclear SOX9
SMILES	nuclear SOX9 intensity
Cc1ccc(S(=O)(=O)NC(=O)NN2CC3CCCC3C2)cc1 (stereo not shown)	93.6 % of DMSO
NCCCCCCCCCCNS(=O)(=O)c1cccc2c(Cl)cccc12	110 % of DMSO
Cc1cc([C@@H](C)Nc2ccccc2C(=O)O)c2nc(N3CCOCC3)cc(=O)n2c1	84.1 % of DMSO
CN1CCN(CC(=O)N2c3ccccc3C(=O)Nc3cccnc32)CC1	101 % of DMSO

Study 3
Species: mouse
Sample: microsomes or S9
Concentration: 2 µM
Time: 0.5 h
Structure (SMILES)	remaining compound [%]
Cc1nnc(C[S+]([O-])c2ccc(Cl)c(Cl)c2)n1C (stereo not shown)	> 100
CCOc1cc(=O)n2c(c1C(=O)N1CCCc3ccccc31)CCCC2	0.347
COc1cc(=O)n(-c2ccccc2)cc1C(=O)NC1CC2CCC(C1)N2S(C)(=O)=O (stereo not shown)	65.8

Study 4
Target: CCNA2, cyclin fold, Cln2 fusion (human)
Method: yeast growth competition, sequencing
Sample: yeast
Notes: strong parent motif
Baseline: not given
Reading: higher = stronger binding
Starting sequence: MICAL3 docking peptide (human); LQLRRQLSFSEDS
Variant	normalised enrichment score
LQLRRQVSFSEDS [L7V]	0.369
LQIRRQLSFSEDS [L3I]	5.2
LQLRRQLNFSEDS [S8N]	4.35
LLLRRQLSFSEDS [Q2L]	3.44
LQLGRQLSFSEDS [R4G]	0.0413
LQLRRQLSSSEDS [F9S]	-0.541
LQLRRALSFSEDS [Q6A]	3.02
LQLRRQLSFNEDS [S10N]	3.09

Other studies, line by line
Method: PRP chromatography estimate
Sample: 1,9-decadiene/PBS
pH: 7.4
SMILES	logD
CC(C)C[C@@H]1NC(=O)[C@H](C(C)C)NC(=O)[C@H](C)NC(=O)[C@H](CC(C)C)NC(=O)[C@H](C(C)C)NC(=O)[C@H](CC(C)C)NC(=O)[C@@H](CC(C)C)NC1=O	0.358
CC(C)C[C@@H]1NC(=O)[C@H](C)NC(=O)[C@H](CC(C)C)NC(=O)[C@@H](CC(C)C)NC(=O)[C@H](CC(C)C)NC(=O)[C@@H](C)NC(=O)[C@H](CCC(=O)N2CCCC2)NC1=O	-1.72

Repeated from above (study 1):
target	remaining binding [%]
SNF-related serine/threonine-protein kinase (SNRK, Homo sapiens, UniProt Q9NRH2)	94
Homeodomain-interacting protein kinase 1 (HIPK1, Homo sapiens, UniProt Q86Z02)	75
1-phosphatidylinositol 3-phosphate 5-kinase (PIKFYVE, Homo sapiens, UniProt Q9Y2I7)	100
Serine/threonine-protein kinase NLK (NLK, Homo sapiens, UniProt Q9UBE8)	100
RAF proto-oncogene serine/threonine-protein kinase (RAF1, Homo sapiens, UniProt P04049)	100
